Measured values of several laboratories.
Each numbered part is a random draw from the data of one study; scales do not carry over between parts. Positions count from the first letter of the parent shown.

Sample 1
Target: CREM, bZIP domain (human)
Technique: DHFR protein complementation
Medium: yeast
Notes: single substitutions, most at no-binding floor
Reference: wild-type JUN-FOS pair
Reading: higher = stronger binding
Starting sequence: JUN, bZIP domain (human); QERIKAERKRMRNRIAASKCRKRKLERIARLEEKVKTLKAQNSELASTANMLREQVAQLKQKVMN; partner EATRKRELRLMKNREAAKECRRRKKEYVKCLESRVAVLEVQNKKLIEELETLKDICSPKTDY
Variant | binding fitness [natural log]
M51E | -1.27
L38D | -1.52
A40M | -1.34
S47T | -1.47
K34E | -1.43
E44S | -1.45
K36R | -1.35
A40C | -1.49
S43H | -1.47
A29I | -1.33

Sample 2
Target: CCNA2, cyclin fold, Cln2 fusion (human)
Technique: yeast growth competition, sequencing
Medium: yeast
Notes: weak parent motif
Reference: not given
Reading: higher = stronger binding
Starting sequence: SLBP docking peptide (human); ARYKRKLLINDFG
Variant | normalised enrichment score
ARYKRKLLINQFG [D11Q] | 1.45
ARYKRKLLINMFG [D11M] | 2.73
ARYKRKLLIMDFG [N10M] | 1.28
ARYKRKLLQNDFG [I9Q] | 0.991
ARYKRKLLINHFG [D11H] | 1.69
ARYKRCLLINDFG [K6C] | 2.16
ARYKRKYLINDFG [L7Y] | 1.2
ARYKRDLLINDFG [K6D] | 0.641
ARYDRKLLINDFG [K4D] | 0.446
GRYKRKLLINDFG [A1G] | 1.24
ARYKRKLLINDFE [G13E] | 1.14
ARMKRKLLINDFG [Y3M] | 1.54
ARYKRKLLIKDFG [N10K] | 1.67
ARYKRALLINDFG [K6A] | 2
ARYKRKLLTNDFG [I9T] | 0.841
ARNKRKLLINDFG [Y3N] | 0.892
ARYKRKLLINIFG [D11I] | 1.78

Sample 3
Target: OGT, full length, His-tagged (human)
Technique: phage display, sequencing
Medium: in vitro
Tested at: 1 µg OGT
Notes: single substitutions, 15-mer displayed peptide, unchanged parent 19.6
Reference: input library
Reading: higher = stronger binding
Starting sequence: peptide; TAPFYPPAYQIQVFK; partner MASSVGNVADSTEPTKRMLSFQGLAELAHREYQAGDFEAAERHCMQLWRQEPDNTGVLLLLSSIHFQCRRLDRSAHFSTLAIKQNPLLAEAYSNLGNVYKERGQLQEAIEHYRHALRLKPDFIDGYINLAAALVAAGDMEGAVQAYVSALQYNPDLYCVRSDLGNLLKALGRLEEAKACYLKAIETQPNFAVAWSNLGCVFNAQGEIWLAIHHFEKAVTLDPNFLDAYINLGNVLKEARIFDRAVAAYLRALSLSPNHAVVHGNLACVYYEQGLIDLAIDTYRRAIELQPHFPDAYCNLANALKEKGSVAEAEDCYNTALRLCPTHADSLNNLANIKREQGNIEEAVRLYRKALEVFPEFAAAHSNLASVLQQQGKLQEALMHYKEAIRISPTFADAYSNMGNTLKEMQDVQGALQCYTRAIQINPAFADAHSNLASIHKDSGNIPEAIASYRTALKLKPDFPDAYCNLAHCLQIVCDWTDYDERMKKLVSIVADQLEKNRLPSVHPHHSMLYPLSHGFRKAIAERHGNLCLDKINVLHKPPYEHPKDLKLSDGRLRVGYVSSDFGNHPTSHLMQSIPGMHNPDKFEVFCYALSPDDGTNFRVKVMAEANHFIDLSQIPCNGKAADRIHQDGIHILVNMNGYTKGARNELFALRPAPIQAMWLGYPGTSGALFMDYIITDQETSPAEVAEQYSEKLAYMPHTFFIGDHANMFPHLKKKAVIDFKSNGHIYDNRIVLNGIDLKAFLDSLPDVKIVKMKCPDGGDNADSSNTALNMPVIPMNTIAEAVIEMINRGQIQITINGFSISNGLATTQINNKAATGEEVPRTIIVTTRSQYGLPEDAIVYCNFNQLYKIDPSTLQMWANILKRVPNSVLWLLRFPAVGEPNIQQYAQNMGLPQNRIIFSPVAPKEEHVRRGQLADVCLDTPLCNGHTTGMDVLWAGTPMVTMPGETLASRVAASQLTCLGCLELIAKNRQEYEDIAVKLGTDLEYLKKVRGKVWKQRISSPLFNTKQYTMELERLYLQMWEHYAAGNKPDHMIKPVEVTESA
Variant | fold enrichment
TAPFYPPAYQIQVFQ [K15Q] | 8.69 fold
TAPFYPPAYQIQVWK [F14W] | 10.8 fold
TAPFYPPAYQIEVFK [Q12E] | 18 fold
TAPDYPPAYQIQVFK [F4D] | 4.72 fold
TAPFYPPAYFIQVFK [Q10F] | 3.26 fold
TAPFYPPAYQHQVFK [I11H] | 0.918 fold
TVPFYPPAYQIQVFK [A2V] | 18.6 fold
TAPFYPPAYQIQVVK [F14V] | 9.26 fold
TQPFYPPAYQIQVFK [A2Q] | 14.7 fold
TAPFYNPAYQIQVFK [P6N] | 1.16 fold
TAPFYPPAYQIHVFK [Q12H] | 18 fold
TAPFYPPAYEIQVFK [Q10E] | 1.25 fold
RAPFYPPAYQIQVFK [T1R] | 15.9 fold
TAPFYPPAYQIYVFK [Q12Y] | 11.2 fold
TARFYPPAYQIQVFK [P3R] | 14.7 fold
TAPFYPPAYQIQVNK [F14N] | 27.8 fold
TAPFYYPAYQIQVFK [P6Y] | 3.78 fold
TASFYPPAYQIQVFK [P3S] | 12.7 fold
TAPFYKPAYQIQVFK [P6K] | 1.15 fold
TAIFYPPAYQIQVFK [P3I] | 23.8 fold

Sample 4
Target: RING finger protein unkempt homolog, zinc fingers 1-6, GST-SBP tag (UNK, Homo sapiens, UniProt Q9C0B0, residues 30-357)
Chain of UniProt Q9C0B0 (30-357, looked up): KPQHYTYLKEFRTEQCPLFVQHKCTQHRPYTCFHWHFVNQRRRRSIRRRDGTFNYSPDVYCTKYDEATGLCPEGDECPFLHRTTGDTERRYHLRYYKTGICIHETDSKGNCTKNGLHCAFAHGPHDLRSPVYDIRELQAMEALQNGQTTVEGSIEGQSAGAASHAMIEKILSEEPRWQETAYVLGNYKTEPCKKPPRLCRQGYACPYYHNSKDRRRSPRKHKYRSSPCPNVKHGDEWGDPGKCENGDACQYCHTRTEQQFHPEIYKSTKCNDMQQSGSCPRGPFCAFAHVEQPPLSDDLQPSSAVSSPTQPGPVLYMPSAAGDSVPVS
Technique: RNA Bind-n-Seq
Molecule type: RNA
Medium: in vitro
Tested at: not given
Notes: RNA with constant flanks, ends assumed
Reference: input RNA pool
Reading: higher = stronger binding
All sequences stand within: GGGAGUUCUACAGUCCGACGAUC … CAACAGAGGAUUGAGCAUCA
Oligonucleotide | bound/input enrichment [ratio]
UUAAAAAAAUCACUAAAUUGUGCCUAAAGAACAUAACUGCCAUAUUAAUGUUUUUAUUUCUACCGUAUUAGAAAAACAUUUAAUACUUGUAGCAUUGAUGUGUUGAUUUGAUACCAGUUG | 0.258
AUCAAGGGUAAAAUUCCAUUCUGAUAUCAAAAUGCAGUAUUCGCACCACUGUGAGCACCUUUCCGAGAGACUGAACAAACAGCGGGAAGCAGGUUUUCUCUGUGACUGUACCAUAGUGAU | 0.246
AGAGCGUUUGUUAUAAGACGUAACGUAACCUACUGUUCAUGUUUGCUCUGGUCUGAAGUGUUCCGCUGUUGAGCUGGAUUCCUUAGGAGACCAAAUUAAGAUGGCUUAAAUUACAUCUUA | 0.323
UCACUUGAAAAUAAUGAAACAUUAGAAAGCAUAAUGAAUACCCUAGAGAGUGAAGAAGACUUCCGAAAAUAUUUUUAUUACUUGGAAGGAUCCAAAGAUGCUCUCCUUUGUGGUUUCAGC | 2.17
AAAGAUAAAUUUGCAAGGGCCAAAGAGUUUGGAGCCACUGAAUGUAUUAACCCUCAGGAUUUCCGUAAACCCAUCCAGGAAGUGCUCAUUGAGAUGACCGAUGGAGGAGUGGACUAUUCC | 0.235
UUUGGCAUCACCCAGCGACCAGCGUACAUUAACAUGGUACCUAGCCUGUCGCAGUUCACCCGCAUUUACACACCUUUGGCCAACAUUUCUUCUGAGUAUCCAAUGCAAAGAUCCAUGCCA | 0.215
GUCAAAUUCAAACUACAGUACUGUGUAAUUAUGUAUAAAGUUUUUUUAUUUAUUUGAAGUCCGACCCGAUAUACGUUUUUAAAUUUAACAUCUGGCUGGACAGUGUUCUAUUAACUCAUU | 3.51
GGAGACGUUUGAUGCAAAUGAUUUGUAUCAGGGGCAGAAUUUUAACAAGGUCCUCAGUUCCUCCGUGACUCUAAAUAAAGUAACAGCAGACAUCGGGCUGGGGAGUGACUCCGUGUGUGC | 0.278

Other studies, line by line
Substance | target | assay | test system | setting | how to read | measurement | result
PhoQ, residues 284 288 289 292 302 303 AAQSYM | PhoP, residues 12 14 15 18 19 GHCSL (Escherichia coli, UniProt P23836) | Sort-seq, item: YFP reporter | E. coli | PhoQ-PhoP variant library, with: 10 µM Mg2+ | reference: high Mg2+ state, higher = stronger signaling | fold induction | 11.6

Some of these lines once more (sample 2):
Variant | normalised enrichment score
ARYKRKLLINHFG [D11H] | 1.69
GRYKRKLLINDFG [A1G] | 1.24
ARYKRKLLIKDFG [N10K] | 1.67
ARYKRKLLINDFE [G13E] | 1.14
ARYKRKLLINIFG [D11I] | 1.78
ARNKRKLLINDFG [Y3N] | 0.892
ARMKRKLLINDFG [Y3M] | 1.54
ARYKRDLLINDFG [K6D] | 0.641
ARYKRKLLIMDFG [N10M] | 1.28
